Measured values collected from several papers.
± marks the error that the study gave.
Cell line: Caco-2 monolayers

Structure (SMILES) | assay | system | conditions | how to read | quantity | result
CC(=O)N[C@H]1[C@H]([C@H](O)[C@H](O)CO)OC(C(=O)O)=C[C@@H]1N=C(N)N |  |  | concentration not given, 180 min, basolateral to apical, with: calcium-free HBSS | relative to: HBSS with calcium | Papp fold increase | 57.2 fold
O=C(CS)NCCCCCC(=O)Nc1cccc2cccnc12 |  |  | with: verapamil 100 µM | relative to: B-A over A-B | efflux ratio | 0.73
OC[C@H]1O[C@@H](Oc2cc(O)cc(/C=C/c3ccc(O)cc3)c2)[C@H](O)[C@@H](O)[C@@H]1O | bidirectional transport, HPLC-UV |  | 100 µg/mL, 2 h | relative to: BL→AP over AP→BL | efflux ratio | > 2
O=C(CCc1ccc(O)cc1)c1c(O)cc(O)cc1O[C@@H]1O[C@H](CO)[C@@H](O)[C@H](O)[C@H]1O |  |  | 100 µg/mL, 2 h | relative to: Papp(BL-AP) over Papp(AP-BL) | efflux ratio | 1.93 ± 1.2
O=C(O)C=Cc1ccc(O)cc1 |  |  | 1 mM, pH 7.4, apical pH effect |  | Papp | inhibited
COc1ccc(CCC(=O)c2c(O)cc(O[C@@H]3O[C@H](CO)[C@@H](O)[C@H](O)[C@H]3O[C@@H]3O[C@@H](C)[C@H](O)[C@@H](O)[C@H]3O)cc2O)cc1O | apical to basolateral transport |  | 100 µg/mL, 2 h |  | amount transported | 13.8 ± 0.7%
OCCc1ccccc1O | bidirectional transport, HPLC-UV |  | 100 µg/mL, 2 h | relative to: BL→AP over AP→BL | efflux ratio | > 2
O=S1(=O)OC(c2ccc(O)cc2)(c2ccc(O)cc2)c2ccccc21 |  | apical mixed micelles | 500 µM |  | paracellular flux | 0.02 ± 0.005 %/h/cm²
COc1ccc([C@@H]2CC(=O)c3c(O)cc(O)cc3O2)cc1O | basolateral to apical transport |  | 100 µg/mL, 2 h |  | amount transported | 17.4 ± 0.7%
CC(C)c1nc(N(C)S(C)(=O)=O)nc(-c2ccc(F)cc2)c1/C=C/[C@@H](O)C[C@@H](O)CC(=O)O |  |  | 5 µM, 2 h, pH apical 6.5, basolateral 7.4 |  | Papp (A to B) | 0.17 ×10⁻⁶ cm/s
